Measured values collected from several papers.
± gives the spread as reported.

Structure (SMILES) | target or system | assay | test system | conditions | scale | measurement | result
COc1ccccc1-c1n[nH]c2nc(N[C@H]3CC[C@H](NS(=O)(=O)CC(C)C)CC3)ncc12 |  | bead binding, competition bead pull-down, refers to: LINJ.35.1070 | Leishmania donovani extract | 10 µM | reference: vehicle | relative abundance | 0.93
CC(C)C[C@H](NC(=O)CNC(=O)[C@H](CCCCN)NC(=O)[C@@H](N)CC(C)C)C(=O)N[C@@H](C)C(=O)N[C@@H](C)C(=O)N[C@@H](CCCCN)C(=O)N[C@@H](CC(C)C)C(=O)N[C@@H](CC(C)C)C(=O)NCC(=O)N[C@@H](CC(C)C)C(=O)N[C@@H](CCCCN)C(=O)N[C@@H](CCCCN)C(=O)O | Candida albicans | growth | ATCC 10231, potato dextrose broth | 128 µM, 30 °C |  | inhibition | 0.934 fraction (0-1)
CC(=O)c1c(O)c(C)c(O)c2c1OC1=CC(=O)C(=C(C)NCCCC(=O)OC3OC4OC5(C)CCC6C(C)CCC(C3C)C46OO5)C(=O)C12C (stereo not shown) | Plasmodium berghei | parasitaemia | ANKA GFP, mouse NMRI | intraperitoneal, 4 × 50 mg/kg, day 4 post infection |  | inhibition | 99.7%
CC(C)(C)C(=O)OCOP(=O)(OCOC(=O)C(C)(C)C)C1CCCN(O)C1=O (stereo not shown) | NCI-H460 |  |  |  |  | TGI | 12.9 µM
CCOC(=O)C1(C)Oc2cc(F)ccc2N(C)C1=O (stereo not shown) | Arabidopsis thaliana | root length, petri dish germination | Col-0, 1/2 MS medium | 200 µg/mL, 7 days, 22 °C, dark |  | inhibition | 100%
O=C(NNc1ccc(Cl)cc1)c1nnc(CC23CC4CC(CC(C4)C2)C3)o1 | Botryosphaeria dothidea | fungal growth, inhibitor |  | 50 µg/mL |  | inhibition | 100%
Cc1ccc(N2CC3CC(C2)N3C)cc1C(=O)NC1(c2ccc3c4c(cccc24)C(=O)N3C)CC1 | Betacoronavirus 1 | viral replication | Huh-7, OC43 | 46.88 nM |  | inhibition | 0%
CCOC(=O)C1(Cc2ccc(C#N)cc2F)Oc2cc(F)ccc2N(Cc2ccc(C#N)cc2F)C1=O (stereo not shown) | Arabidopsis thaliana | root length, petri dish germination | Col-0, 1/2 MS medium | 50 µg/mL, 7 days, 22 °C, dark |  | inhibition | 30.1%
CC(=O)c1c(O)c(C)c(O)c2c1OC1=CC(=O)C(=C(C)NCCCCOC3OC4OC5(C)CCC6C(C)CCC(C3C)C46OO5)C(=O)C12C (mixture of isomers) | Plasmodium berghei | parasitaemia | ANKA GFP, mouse NMRI | intraperitoneal, 4 × 50 mg/kg, day 4 post infection |  | inhibition | 99.6%
COc1ccccc1-c1n[nH]c2nc(NC3CCN(C(=O)Cc4ccc(F)cc4F)CC3)ncc12 |  | bead binding, competition bead pull-down, refers to: LINJ.36.6910 | Leishmania donovani axenic amastigote extract | 10 µM | reference: vehicle | relative abundance | 0.47
O=C1NC2(CC2)COc2ncc(F)cc2[C@H]2COCCN2c2ccn3ncc1c3n2 |  |  | Sprague-Dawley rat, female, blood | oral, 10 mg/kg/day, end of recovery, 4-week repeated-dose toxicity | reference: red blood cells | reticulocytes | 1.72 ± 0.94%
C[C@H](NC(=O)[C@@H](O)c1cc(F)cc(F)c1)C(=O)N[C@@H]1C(=O)N(C)c2ccccc2-c2ccccc21 | dengue virus 2 | viral infection, luciferase reporter virus |  | 3 nM, 48 h |  | inhibition | 20.2%
CCOC(=O)C1(Cc2ccc(F)cc2)Oc2cc(F)ccc2N(Cc2ccc(F)cc2)C1=O (stereo not shown) | Arabidopsis thaliana | root length, petri dish germination | Col-0, 1/2 MS medium | 50 µg/mL, 7 days, 22 °C, dark |  | inhibition | 36.6%

Some of these lines once more:
Structure (SMILES) | target or system | assay | test system | conditions | scale | measurement | result
C[C@H](NC(=O)[C@@H](O)c1cc(F)cc(F)c1)C(=O)N[C@@H]1C(=O)N(C)c2ccccc2-c2ccccc21 | dengue virus 2 | viral infection, luciferase reporter virus |  | 3 nM, 48 h |  | inhibition | 20.2%
CCOC(=O)C1(Cc2ccc(F)cc2)Oc2cc(F)ccc2N(Cc2ccc(F)cc2)C1=O (stereo not shown) | Arabidopsis thaliana | root length, petri dish germination | Col-0, 1/2 MS medium | 50 µg/mL, 7 days, 22 °C, dark |  | inhibition | 36.6%
